# Results of several laboratories.
# A part holds a random share of what one study measured. Changes are numbered by the printed parent chain.

# Sample 1
# Target: CCNA1, cyclin fold, Cln2 fusion (human)
# Technique: yeast growth competition, sequencing
# Medium: yeast
# Notes: weak parent motif
# Relative to: not given
# Reading: higher = stronger binding
# Starting sequence: PLK5 docking peptide (human); IFRKVGQRLLTQC
Variant,normalised enrichment score
R8A,0.238
Q12A,-0.37
C13A,0.000436
V5A,-0.295
R3A,-0.307
F2A,0.161

# Sample 2
# Target: TAR DNA-binding protein 43, full length, His tag (TARDBP, Homo sapiens, UniProt Q13148, residues 1-414)
# Technique: RNA Bind-n-Seq
# Molecule type: RNA
# Medium: in vitro
# Tested at: 20 nM
# Notes: 6-mer, flanks averaged, single round
# Added: 150 mM KCl
# Relative to: input library
# Reading: higher = stronger binding
Oligonucleotide,6-mer enrichment (R)
CAUUCC,0.557
UAGAGU,0.862
AAAUCC,0.577
CUUGUA,0.658
UCGGGA,1.77
ACCCCG,0.677
GCGGUU,1.25
CCCUCG,0.636
AGGCGC,1.38
CCCGCU,0.618

# Sample 3
# Target: Interferon regulatory factor 3, full length, phosphomimetic (IRF3, Homo sapiens, UniProt Q14653, residues 1-427, S386D/S396D/S398D/S402D/T404D/S405D)
# Technique: protein-binding microarray
# Molecule type: double-stranded DNA, one strand shown
# Medium: in vitro
# Tested at: 2540 nM top
# Notes: 60-bp whole probe
# Added: salmon DNA 0.4 mg/ml
# Relative to: random background probes
# Reading: higher = stronger binding
# All sequences stand within: GCCTAGCAC … GTCTTGATTCGCTTGACGCTGCTG
# Target sequence (chain): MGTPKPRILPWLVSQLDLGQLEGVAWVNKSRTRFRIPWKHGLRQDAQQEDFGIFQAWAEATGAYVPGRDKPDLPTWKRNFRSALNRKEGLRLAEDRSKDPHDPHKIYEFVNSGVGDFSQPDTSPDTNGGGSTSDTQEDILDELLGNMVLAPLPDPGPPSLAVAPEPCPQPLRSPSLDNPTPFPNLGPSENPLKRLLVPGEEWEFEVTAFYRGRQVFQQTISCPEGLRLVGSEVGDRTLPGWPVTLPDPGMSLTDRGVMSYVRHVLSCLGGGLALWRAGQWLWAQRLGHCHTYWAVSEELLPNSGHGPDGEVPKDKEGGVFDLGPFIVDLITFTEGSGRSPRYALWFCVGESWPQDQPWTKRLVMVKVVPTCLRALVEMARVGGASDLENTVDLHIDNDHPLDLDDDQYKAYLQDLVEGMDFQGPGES
Oligonucleotide,fitted relative affinity
TTATGTTTCGGGACTGGGTTAGTGCTA,3.23 z-score
GACGCACTGAGTCTCGAGACGTGCTAG,-0.344 z-score
TCATTTTCATTTTCTGAAACTGTGCTA,5 z-score
TCATTTATCAATCATTTTACTGTGCTA,1.63 z-score
GACGGTATCTTTCTCCTGACGTGCTAG,2.17 z-score
TTTCTTCTAGACTTCTCCATGTGCTAG,1.94 z-score
TCTACTTCTCTTTTTGCTTTGTGCTAG,2.18 z-score
AGGGGACTGACTCTTCAGCACGTGCTA,-0.853 z-score
TCATCCTTCTGACATCAAACTGTGCTA,1.19 z-score
TTAGTTTTCGGTTCCGGTTAGTGCTAG,7.78 z-score
CCTAGTTTTACTTTCTATCTGTGCTAG,4.54 z-score
TGAGCATACCATATCAGAAAGTGCTAG,0.745 z-score
TTAGGACTGCGACTGGGTTAGTGCTAG,-0.871 z-score
TTAGATATCGTGTTTCGATTAGTGCTA,1.63 z-score
TTAGGTACCCTTATCCTTTAGTGCTAG,2.56 z-score
TCAAGCTTCTTTTTTATACTGTGCTAG,0.427 z-score
TCAACTTTTTTTTTTCCACTGTGCTAG,0.8 z-score

# Other studies, line by line
Molecule,target,assay,system,conditions,how to read,measurement,result
"PhoQ, residues 284 288 289 292 302 303 SLANIV","PhoP, residues 12 14 15 18 19 NNFVT (Escherichia coli, UniProt P23836)","Sort-seq, refers to: YFP reporter",E. coli,"PhoQ-PhoP variant library, added: 10 µM Mg2+","relative to: high Mg2+ state, higher = stronger signaling",fold induction,16.4

# Excerpt of the above (sample 3):
Oligonucleotide,fitted relative affinity
TTAGTTTTCGGTTCCGGTTAGTGCTAG,7.78 z-score
CCTAGTTTTACTTTCTATCTGTGCTAG,4.54 z-score
TGAGCATACCATATCAGAAAGTGCTAG,0.745 z-score
TTAGGACTGCGACTGGGTTAGTGCTAG,-0.871 z-score
